{"data": "Published values collected from several papers", "note": "Each numbered part is a random draw from the data of one study; scales do not carry over between parts."}
{"data": "Series 1", "target": "Hepatocyte nuclear factor 3-alpha (Foxa1, Mus musculus, UniProt P35582, residues 1-468, full length assumed)", "technique": "EMSA with sequencing", "form": "double-stranded DNA, one strand shown", "medium": "in vitro", "concentration": "10 and 20 nM", "setting": "whole designed probe, mean of two concentrations, ends assumed", "baseline": "negative control set to 0", "direction": "higher = stronger binding", "constant ends, left off below": "GTGAGCGGTGCCCATTGATGGGGAAC … TTTCACTGGGATCGTGGGGAC", "UniProt P35582, sequence (whole entry, looked up)": "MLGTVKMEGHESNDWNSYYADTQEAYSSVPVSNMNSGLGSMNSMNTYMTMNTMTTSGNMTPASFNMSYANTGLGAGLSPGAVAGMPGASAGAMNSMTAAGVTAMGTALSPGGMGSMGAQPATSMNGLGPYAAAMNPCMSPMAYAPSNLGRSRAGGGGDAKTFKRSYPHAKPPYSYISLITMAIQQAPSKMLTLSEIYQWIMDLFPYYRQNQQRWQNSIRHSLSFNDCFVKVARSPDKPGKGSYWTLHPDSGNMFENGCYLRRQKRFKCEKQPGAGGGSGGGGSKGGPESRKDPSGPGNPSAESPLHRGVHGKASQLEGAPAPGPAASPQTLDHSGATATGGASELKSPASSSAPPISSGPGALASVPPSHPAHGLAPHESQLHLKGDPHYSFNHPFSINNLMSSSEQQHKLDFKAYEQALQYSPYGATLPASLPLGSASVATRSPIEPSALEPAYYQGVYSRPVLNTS"}
{"Sequence": "CAGCAAGGAATTTATAAGAAAATGATGTTGAGAAACCATTCTATTTCTCCAAGGAGCAGAGCCACCACACATTTACACAAGGATGTTCTTGCTAGATTACACATACAACACAGTATGCTTCTAGGTGCAGTTGCATTCCAGGCAGCCCCGAGTGGCAGTCTCCCATTTTGGCATCTGTTGGCAGGAGGTTATC", "normalised bound fraction [ratio]": 0.0349}
{"Sequence": "TTCTACTCCAGTTCCAGAAAAGTTATGGAAGTCTCAGTTCCTGTGTGTGCCATCACTTTAGCCTCCAGGAAGCTATCTCTTAGTCTCTCCTACTGTAATCTTGTCTCCCTGAGTCACCACAGCATCTGTTGTTTCTAGGTGAAGGACTAATACAAATAACAGGGAGGCGCCTGGCATCTGGCCACCTGAACAC", "normalised bound fraction [ratio]": 0.203}
{"Sequence": "CTCATTCCTTGCTTCCGCCAATAATCTGACTAGTAAAGAAGTCACTGCATGCCACAAATTGTCAGTGCTGACTTCCTCAACAAGGAAGTTATTTATTTACTTATTTAATATATATGGAGTGACTCAGCAAATTCCATCTTGAGAATACCAACTCCTGATGCCAACTGATTGTCAGTCATGGCTACAACAGGAG", "normalised bound fraction [ratio]": 0.456}
{"Sequence": "TTTTTTAATAAGAGGGACACTCAGTGAAATTTTTGCGTGAAAATAAGATAAAGTTCTATTGTTCAGCTTTTAATGATAGCATGGAATTCTAAGTAAACATGGATGAAATACAACTTGTCAGCACAAAAATACTGCCTGTCATAGTCATTTGTGTATAAAATATGACCCGCAGGTTTGAACCATATGGTTACAT", "normalised bound fraction [ratio]": 0.24}
{"Sequence": "CTCCTGACCTGGGACCCCACAGAGCTGGGCCTGTCATCACATTTATGGGGCTGCAGCTGACCTGGGAACTCCCTTCCTCAGTCAGTCCACAAATATTTACCCAGAGCCTCAGGGTGCTCAGTGAGCATTACAAAACAAAGTGCAGAGTCACGTGCCAGGGCACAGCAATCCCGGGCAAAACAGACCGAAACCC", "normalised bound fraction [ratio]": 0.147}
{"data": "Series 2", "target": "RNA binding protein fox-1 homolog 2, RRM domain, GST-SBP tag (RBFOX2, Homo sapiens, UniProt O43251-10, residues 100-194)", "technique": "RNA Bind-n-Seq", "form": "RNA", "medium": "in vitro", "concentration": "365 nM", "setting": "natural RNA segment, single round, ends assumed", "baseline": "no-protein control", "direction": "higher = stronger binding", "constant ends, left off below": "GGGAGUUCUACAGUCCGACGAUC … UGGAAUUCUCGGGUGCCAA"}
{"Sequence": "UUCCUCCUGCUCCAAACUUUGCCCAUCCUCUUUGCCCCCUCAGGAGUGCUGAGGGCCAGUGUUGACCCACACUACCCUCCCUUGACCAGCUGUCUGGGACCGGAAACCAG", "RBNS enrichment (R)": 0.847}
{"Sequence": "AAUUGUACUUUUUCUUCCCAUGUGAGCAUUGUGGGAAGGAAUGGACACAGAGCAGCGUAGACAUUUGUGAGCUUCGGUGCUGUUCAGUGCCUGCUUCUUCAUCACCUUAA", "RBNS enrichment (R)": 0.979}
{"Sequence": "GCUGGCCAUAUUCCUCCUGUCCCCAUGCUGUGGCUCAUGCCAACCUAGCAAUAAGGAGCUCUGGAGAGCCUGCACCUGCCUCCCGCUCGCCUAUAUCUGCUGCCCAGAGG", "RBNS enrichment (R)": 1.02}
{"Sequence": "UCACUGUUAACCCUGAGAGCACAUAAUCUGAUGCAUGUGUGACUAAGAAUAAGCCUAUGGUCAUGGGCAAGAAGGGCCAACAUAGACACUUGGGUAGAAAUACAGUCUGA", "RBNS enrichment (R)": 4.35}
{"Sequence": "GUCUCCACCGAAUCCAUUUAGAGAAAUGUCAGAGCGAGGGUUGUGUGGACACCCCUCGCUCUGAUGCCAACUGCAGAUAAUACACACCUCCUGCAGCGUCCAGCCACGGC", "RBNS enrichment (R)": 0.479}
{"Sequence": "CAGGGAGGCCACGUCCCACCCCACCUCUUGUUUCUGGGUCCCUGCUCCCCUUUGGGGGUGUGUGUGUGUGUUUUAAUUUUCUUUAUGGAAAAAUUGACAAAAAAAAAAUA", "RBNS enrichment (R)": 0.55}
{"Sequence": "UCCCUAGUUUUCUAGGUGAGCUUCAUUCCCUGAAAGGAGGAUGAUGAUAUCUAGGCAUAACCUAGCCUGUGAGGAACCUAGUUAGGAAAGACAACUGACAUUUAUUGAAU", "RBNS enrichment (R)": 0.369}
{"Sequence": "GGUUGCCCCGGGACCGUGCUCAGCUGCUCUGCAUGCCCUGUCCUACUGACAGGUACCUUAGUUCUGUGUUCAUGUGGCCCUGACCCUUCCUUCAACCACACCUGGUCUCU", "RBNS enrichment (R)": 1.18}
{"data": "Series 3", "target": "RING finger protein unkempt homolog, zinc fingers 1-6, GST-SBP tag (UNK, Homo sapiens, UniProt Q9C0B0, residues 30-357)", "technique": "RNA Bind-n-Seq", "form": "RNA", "medium": "in vitro", "concentration": "not given", "setting": "RNA with constant flanks, human-mouse chimeric sites, ends assumed", "baseline": "input RNA pool", "direction": "higher = stronger binding", "constant ends, left off below": "GGGAGUUCUACAGUCCGACGAUC … CAACAGAGGAUUGAGCAUCA", "UniProt Q9C0B0, sequence (30-357, looked up)": "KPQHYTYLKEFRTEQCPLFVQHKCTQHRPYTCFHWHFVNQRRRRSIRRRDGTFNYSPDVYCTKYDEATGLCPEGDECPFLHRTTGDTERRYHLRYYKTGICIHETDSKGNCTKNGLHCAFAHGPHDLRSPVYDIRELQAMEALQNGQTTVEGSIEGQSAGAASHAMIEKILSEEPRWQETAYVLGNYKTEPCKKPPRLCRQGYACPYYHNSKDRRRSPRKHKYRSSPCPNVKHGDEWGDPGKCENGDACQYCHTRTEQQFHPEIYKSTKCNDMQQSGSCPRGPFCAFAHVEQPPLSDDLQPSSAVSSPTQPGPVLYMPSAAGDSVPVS"}
{"Sequence": "CAGGGCAUCAUCUCUCGUGCUGUUAGACACCUGUUCAAGAGUAUUGAAGAAAAAAAAACCUCAGCGAUUAAAAACGGGCUUCCUGCUCCUGAAUUCAAAGUGAAUGCCCAGUUCCUAGAG", "bound/input enrichment": "0.277 ratio"}
{"Sequence": "CAGCCUCAGAGCCCAGACUUCCUGGAUAUUACCAACCCUAAAGCGGUAUUAGAAAACGCAUUGAGAAACUUUGCCUGUCUGACGACUGGAGAUGUGAUUGCUAUCAACUACAAUGAGAAG", "bound/input enrichment": "0.419 ratio"}
{"Sequence": "UCAGGAACCCAGACAAAUAUGAAUGUAAAUGAAGUCAUUAGCAACAGAGCAAUUGAAAUGUUAGGAGGUGAACUUGGCAGCAAGAAGCCUGUGCACCCCAAUGAUCAUGUUAAUAAAAGC", "bound/input enrichment": "0.669 ratio"}
{"Sequence": "UUGGAAGGACCAGAGCCUAAUCAACUGAAACCAUUAGUCAUACAGGCUAUGCCCACCCUAAUAGAACUAAUGAAAGACCCCAGUGUAGUUGUUCGAGAUACAGCUGCAUGGACUGUAGGC", "bound/input enrichment": "1.16 ratio"}
{"Sequence": "CACAGAGGAGAUCUGCUGUUCCUCACGAAUUUCCGGGAAGACCCAAUCAGAGCUGGUGAAAUAGUUGUUUUUAAGGUUGAAGGAAGAGACAUUCCGAUAGUUCACAGAGUAAUCAAGGUU", "bound/input enrichment": "1.59 ratio"}
{"Sequence": "CAGCUGCGAGGCCGCGGUUUCCCCCUGGGUGUGCUGAGCAGCAGCCAUGGGCAUCAAAUUUUUAGAAGUUAUCAAACCAUUCUGUGCAGUUCUACCAGAAAUUCAGAAACCGGAAAGGAA", "bound/input enrichment": "0.885 ratio"}
{"Sequence": "GGUGGGGUGGUCAUUGCCGUUUGAGCUGCUGAUUUUCAUGAGUCGCCUUCAAAACUCUCGUGUAGGGUUGACAAUGUGGGGGGGUGGGAAAUCUAGCUUAUUCUUUUUCCCCAGCCCCCA", "bound/input enrichment": "19.8 ratio"}
{"Sequence": "AAAGAGUGGAUAGAGUGUGCACACGGGAUCGGUUAUACCCGGGCGAAAAAGGAGUGCAAGAUAGAAUUCGAUGACUUCGAAGAGUGCUUGCUUCGGUACAAAACGAUGAGGCGAAUGCAU", "bound/input enrichment": "0.408 ratio"}
{"data": "Series 4", "target": "Interferon regulatory factor 3, full length, phosphomimetic (IRF3, Homo sapiens, UniProt Q14653, residues 1-427, S386D/S396D/S398D/S402D/T404D/S405D)", "technique": "protein-binding microarray", "form": "double-stranded DNA, one strand shown", "medium": "in vitro", "concentration": "2540 nM top", "setting": "60-bp whole probe", "with": "salmon DNA 0.4 mg/ml", "baseline": "random background probes", "direction": "higher = stronger binding", "constant ends, left off below": "GCCTAGCAC … GTCTTGATTCGCTTGACGCTGCTG", "Residues (chain)": "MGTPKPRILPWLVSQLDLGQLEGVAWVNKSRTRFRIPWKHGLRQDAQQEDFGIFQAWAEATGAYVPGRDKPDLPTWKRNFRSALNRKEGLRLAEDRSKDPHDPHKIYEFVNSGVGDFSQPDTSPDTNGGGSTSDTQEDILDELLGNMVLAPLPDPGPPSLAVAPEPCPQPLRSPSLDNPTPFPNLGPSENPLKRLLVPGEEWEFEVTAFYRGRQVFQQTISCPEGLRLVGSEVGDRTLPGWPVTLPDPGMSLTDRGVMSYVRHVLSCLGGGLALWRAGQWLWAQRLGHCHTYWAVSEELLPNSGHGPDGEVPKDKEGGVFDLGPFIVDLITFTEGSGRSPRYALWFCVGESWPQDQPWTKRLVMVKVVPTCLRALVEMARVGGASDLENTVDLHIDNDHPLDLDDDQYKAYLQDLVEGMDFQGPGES"}
{"Sequence": "GACGGGATCCTTCTCCTGACGTGCTAG", "fitted relative affinity [z-score]": 4.49}
{"Sequence": "TGCTCTTTCTACATAGATGTGTGCTAG", "fitted relative affinity [z-score]": 1.75}
{"Sequence": "TCAGTTCTCAGCTTGGGACTGTGCTAG", "fitted relative affinity [z-score]": 1.29}
{"Sequence": "GGCGGTTTCGGTTCCGGGACGTGCTAG", "fitted relative affinity [z-score]": 10.1}
{"Sequence": "GACGGTCTCCTTTTCCTGATGTGCTAG", "fitted relative affinity [z-score]": 4.43}
{"Sequence": "GACGATATCAGTTTCTAGACGTGCTAG", "fitted relative affinity [z-score]": 2.61}
{"Sequence": "GTAGGTCTCCTTTTCCTTTAGTGCTAG", "fitted relative affinity [z-score]": 5.31}
{"Sequence": "TTCGATTTCAGTATCGATTAGTGCTAG", "fitted relative affinity [z-score]": 3.04}
{"Sequence": "TCATTTTTTTTTTTTTTACTGTGCTAG", "fitted relative affinity [z-score]": 1.08}
{"Sequence": "TTAGGTTTCGGGTTTCTGTTAGTGCTA", "fitted relative affinity [z-score]": 5.4}
{"Sequence": "TCCTAATTCTCTTTTCACTTGTGCTAG", "fitted relative affinity [z-score]": 2.41}
{"Sequence": "TTAGGTTTCGTTCTCCTTTAGTGCTAG", "fitted relative affinity [z-score]": 8.08}
{"Sequence": "GACGGTCTCCAACTGCTGACGTGCTAG", "fitted relative affinity [z-score]": 0.854}
{"Sequence": "TTAGCACTGGGGTATCGATTAGTGCTA", "fitted relative affinity [z-score]": -0.574}
{"Sequence": "TTAGAACTGATTATCGATTAGTGCTAG", "fitted relative affinity [z-score]": 0.188}
{"Sequence": "GACGGACTGGGGACTGCGGACGTGCTA", "fitted relative affinity [z-score]": -1.1}
{"Sequence": "GACGAACTGGGGTTTCGATACGTGCTA", "fitted relative affinity [z-score]": 2.07}
{"Sequence": "TTAGGTATCGAACTGGGTTAGTGCTAG", "fitted relative affinity [z-score]": 0.465}
{"Sequence": "TTAGGTATCCATATCCTTTAGTGCTAG", "fitted relative affinity [z-score]": 3.94}
{"note": "Excerpt of the above (series 2):"}
{"Sequence": "GUCUCCACCGAAUCCAUUUAGAGAAAUGUCAGAGCGAGGGUUGUGUGGACACCCCUCGCUCUGAUGCCAACUGCAGAUAAUACACACCUCCUGCAGCGUCCAGCCACGGC", "RBNS enrichment (R)": 0.479}
{"Sequence": "CAGGGAGGCCACGUCCCACCCCACCUCUUGUUUCUGGGUCCCUGCUCCCCUUUGGGGGUGUGUGUGUGUGUUUUAAUUUUCUUUAUGGAAAAAUUGACAAAAAAAAAAUA", "RBNS enrichment (R)": 0.55}
